Published values gathered from unrelated publications.
Each line is one published result; not all experiments were run side by side.
Chain of UniProt P16591 (whole entry, looked up): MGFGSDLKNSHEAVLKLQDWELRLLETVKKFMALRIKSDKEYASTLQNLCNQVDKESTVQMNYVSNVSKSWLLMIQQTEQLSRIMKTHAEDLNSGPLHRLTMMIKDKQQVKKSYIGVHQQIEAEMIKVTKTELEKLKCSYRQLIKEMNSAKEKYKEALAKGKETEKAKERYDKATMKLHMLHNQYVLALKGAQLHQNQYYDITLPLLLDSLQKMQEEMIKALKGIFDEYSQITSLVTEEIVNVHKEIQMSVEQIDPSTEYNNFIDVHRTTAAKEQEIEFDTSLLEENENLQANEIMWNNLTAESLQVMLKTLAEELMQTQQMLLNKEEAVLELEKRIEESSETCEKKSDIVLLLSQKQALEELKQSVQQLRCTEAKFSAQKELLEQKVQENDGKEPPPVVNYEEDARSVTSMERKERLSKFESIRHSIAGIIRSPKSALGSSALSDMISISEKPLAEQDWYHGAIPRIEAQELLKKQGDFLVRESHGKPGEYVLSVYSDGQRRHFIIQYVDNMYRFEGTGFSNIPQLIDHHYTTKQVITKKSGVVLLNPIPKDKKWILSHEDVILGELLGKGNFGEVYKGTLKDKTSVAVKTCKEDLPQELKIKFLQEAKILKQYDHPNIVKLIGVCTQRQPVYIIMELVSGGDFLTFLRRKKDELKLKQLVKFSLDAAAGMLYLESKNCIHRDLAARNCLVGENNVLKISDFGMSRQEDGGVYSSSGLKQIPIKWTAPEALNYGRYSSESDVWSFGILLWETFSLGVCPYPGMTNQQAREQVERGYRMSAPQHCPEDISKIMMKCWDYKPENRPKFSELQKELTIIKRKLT
Chain of UniProt P80192 (whole entry, looked up): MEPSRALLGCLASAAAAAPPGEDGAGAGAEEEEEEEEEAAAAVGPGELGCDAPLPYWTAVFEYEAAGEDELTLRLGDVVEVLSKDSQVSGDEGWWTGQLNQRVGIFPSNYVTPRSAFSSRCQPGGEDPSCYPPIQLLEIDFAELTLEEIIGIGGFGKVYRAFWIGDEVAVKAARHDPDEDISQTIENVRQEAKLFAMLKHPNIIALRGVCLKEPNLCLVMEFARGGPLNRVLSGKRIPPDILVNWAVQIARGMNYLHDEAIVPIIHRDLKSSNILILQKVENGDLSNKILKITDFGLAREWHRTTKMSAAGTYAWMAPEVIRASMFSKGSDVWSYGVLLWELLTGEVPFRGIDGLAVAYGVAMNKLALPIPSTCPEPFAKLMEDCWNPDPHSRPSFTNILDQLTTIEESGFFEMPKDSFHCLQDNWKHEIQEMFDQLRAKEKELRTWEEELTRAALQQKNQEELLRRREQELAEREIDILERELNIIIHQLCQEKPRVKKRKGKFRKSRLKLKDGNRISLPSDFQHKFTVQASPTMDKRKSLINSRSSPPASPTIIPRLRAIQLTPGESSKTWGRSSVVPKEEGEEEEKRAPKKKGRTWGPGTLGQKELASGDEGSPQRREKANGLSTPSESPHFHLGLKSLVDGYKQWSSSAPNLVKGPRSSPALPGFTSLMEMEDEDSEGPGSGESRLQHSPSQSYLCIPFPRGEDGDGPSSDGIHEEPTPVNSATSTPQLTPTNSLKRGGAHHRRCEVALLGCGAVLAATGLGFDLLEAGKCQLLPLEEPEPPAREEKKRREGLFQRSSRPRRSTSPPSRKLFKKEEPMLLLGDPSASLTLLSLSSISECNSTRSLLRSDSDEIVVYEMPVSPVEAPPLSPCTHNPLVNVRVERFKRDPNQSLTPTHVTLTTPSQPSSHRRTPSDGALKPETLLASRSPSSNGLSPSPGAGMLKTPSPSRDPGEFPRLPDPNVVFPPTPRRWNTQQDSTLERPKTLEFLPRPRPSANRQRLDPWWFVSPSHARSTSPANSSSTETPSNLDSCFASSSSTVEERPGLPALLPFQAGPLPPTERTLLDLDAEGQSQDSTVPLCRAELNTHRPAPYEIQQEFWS
Chain of UniProt O43283 (whole entry, looked up): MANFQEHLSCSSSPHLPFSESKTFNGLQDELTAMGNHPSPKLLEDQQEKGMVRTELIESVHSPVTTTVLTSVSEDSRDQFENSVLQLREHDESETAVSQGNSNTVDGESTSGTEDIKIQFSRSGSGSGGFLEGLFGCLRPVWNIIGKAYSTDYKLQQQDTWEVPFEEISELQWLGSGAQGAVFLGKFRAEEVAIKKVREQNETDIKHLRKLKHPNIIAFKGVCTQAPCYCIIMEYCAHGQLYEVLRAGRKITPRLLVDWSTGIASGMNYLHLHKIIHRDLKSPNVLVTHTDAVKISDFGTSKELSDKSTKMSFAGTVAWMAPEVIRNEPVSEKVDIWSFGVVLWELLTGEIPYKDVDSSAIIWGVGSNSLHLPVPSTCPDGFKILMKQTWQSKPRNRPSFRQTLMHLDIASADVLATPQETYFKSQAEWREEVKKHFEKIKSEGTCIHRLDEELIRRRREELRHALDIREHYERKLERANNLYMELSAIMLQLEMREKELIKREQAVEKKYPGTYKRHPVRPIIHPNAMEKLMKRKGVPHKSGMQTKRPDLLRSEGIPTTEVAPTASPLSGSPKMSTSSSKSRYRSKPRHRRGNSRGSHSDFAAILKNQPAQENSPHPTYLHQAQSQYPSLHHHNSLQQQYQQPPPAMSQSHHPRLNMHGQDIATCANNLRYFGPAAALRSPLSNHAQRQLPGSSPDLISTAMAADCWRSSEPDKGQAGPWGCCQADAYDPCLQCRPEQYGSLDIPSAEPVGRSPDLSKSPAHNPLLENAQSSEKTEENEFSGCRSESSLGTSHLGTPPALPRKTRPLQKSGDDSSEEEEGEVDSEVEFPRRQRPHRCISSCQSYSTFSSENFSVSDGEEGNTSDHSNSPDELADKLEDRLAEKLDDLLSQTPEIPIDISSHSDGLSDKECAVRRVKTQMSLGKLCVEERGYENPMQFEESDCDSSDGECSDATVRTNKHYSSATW
Chain of UniProt O75582 (whole entry, looked up): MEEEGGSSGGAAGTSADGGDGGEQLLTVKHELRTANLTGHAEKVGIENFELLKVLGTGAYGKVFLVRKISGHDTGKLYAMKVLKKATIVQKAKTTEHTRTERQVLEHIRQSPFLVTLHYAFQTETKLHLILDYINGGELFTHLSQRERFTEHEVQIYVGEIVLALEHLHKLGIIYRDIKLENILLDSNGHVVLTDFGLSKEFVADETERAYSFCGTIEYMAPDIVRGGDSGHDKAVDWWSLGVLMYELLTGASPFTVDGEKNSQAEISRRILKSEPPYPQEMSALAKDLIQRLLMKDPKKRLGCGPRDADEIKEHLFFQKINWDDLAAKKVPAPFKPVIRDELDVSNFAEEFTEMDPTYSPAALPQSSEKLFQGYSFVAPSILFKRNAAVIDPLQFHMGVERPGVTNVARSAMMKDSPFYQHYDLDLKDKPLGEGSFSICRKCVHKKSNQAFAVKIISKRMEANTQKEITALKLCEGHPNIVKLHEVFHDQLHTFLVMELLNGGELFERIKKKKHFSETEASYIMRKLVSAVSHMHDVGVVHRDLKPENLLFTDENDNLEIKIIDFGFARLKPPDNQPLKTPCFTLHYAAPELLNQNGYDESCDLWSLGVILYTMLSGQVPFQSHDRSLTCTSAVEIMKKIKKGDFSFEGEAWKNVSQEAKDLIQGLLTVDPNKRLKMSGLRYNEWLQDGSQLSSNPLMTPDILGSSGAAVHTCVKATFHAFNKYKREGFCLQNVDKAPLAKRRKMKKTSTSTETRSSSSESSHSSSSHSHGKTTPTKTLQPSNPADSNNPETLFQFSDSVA
Chain of UniProt Q9H3Y6 (whole entry, looked up): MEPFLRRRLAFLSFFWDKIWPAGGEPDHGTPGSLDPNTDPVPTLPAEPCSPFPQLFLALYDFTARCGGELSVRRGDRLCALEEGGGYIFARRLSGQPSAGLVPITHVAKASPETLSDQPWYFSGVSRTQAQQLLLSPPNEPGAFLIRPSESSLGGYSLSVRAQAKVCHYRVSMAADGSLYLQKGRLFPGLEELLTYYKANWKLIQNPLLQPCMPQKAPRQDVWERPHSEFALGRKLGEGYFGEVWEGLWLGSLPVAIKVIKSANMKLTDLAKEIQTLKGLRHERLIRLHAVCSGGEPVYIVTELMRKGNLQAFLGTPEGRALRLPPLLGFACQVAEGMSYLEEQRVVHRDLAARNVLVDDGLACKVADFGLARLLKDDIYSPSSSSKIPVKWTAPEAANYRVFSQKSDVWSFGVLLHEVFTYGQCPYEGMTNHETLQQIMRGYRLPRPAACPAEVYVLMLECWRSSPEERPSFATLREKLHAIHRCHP
Chain of UniProt Q92772 (whole entry, looked up): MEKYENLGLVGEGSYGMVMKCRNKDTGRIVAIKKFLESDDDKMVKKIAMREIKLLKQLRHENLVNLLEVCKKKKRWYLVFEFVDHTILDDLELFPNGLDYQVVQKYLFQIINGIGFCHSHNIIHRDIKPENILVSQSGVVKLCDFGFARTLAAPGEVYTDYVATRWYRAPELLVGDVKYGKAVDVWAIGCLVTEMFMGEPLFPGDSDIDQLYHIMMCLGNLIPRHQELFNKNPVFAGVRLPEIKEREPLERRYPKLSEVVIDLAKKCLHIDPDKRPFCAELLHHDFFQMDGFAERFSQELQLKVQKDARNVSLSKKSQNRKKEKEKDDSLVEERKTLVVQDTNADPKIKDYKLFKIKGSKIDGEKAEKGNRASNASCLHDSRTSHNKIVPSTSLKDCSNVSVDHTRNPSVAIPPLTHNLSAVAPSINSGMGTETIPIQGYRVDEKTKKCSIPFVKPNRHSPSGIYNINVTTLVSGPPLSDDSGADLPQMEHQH
Chain of UniProt O75716 (whole entry, looked up): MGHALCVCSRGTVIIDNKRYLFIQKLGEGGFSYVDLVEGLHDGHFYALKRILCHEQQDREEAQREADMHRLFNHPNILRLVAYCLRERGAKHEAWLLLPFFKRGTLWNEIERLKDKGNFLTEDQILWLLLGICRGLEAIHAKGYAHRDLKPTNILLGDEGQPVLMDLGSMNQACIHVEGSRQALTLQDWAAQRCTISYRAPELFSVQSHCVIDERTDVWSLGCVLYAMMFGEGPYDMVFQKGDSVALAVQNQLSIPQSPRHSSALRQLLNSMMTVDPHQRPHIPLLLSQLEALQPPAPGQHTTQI

With `CNc1ncc2c(/C=C/C(=O)N3CCC(OC)CC3)nn(Cc3cccc(C(F)(F)F)c3)c2n1` the remaining activity was 91% (SRMS (Homo sapiens, UniProt Q9H3Y6); enzyme activity, inhibitor, radiometric; 1 µM).
`COc1cc(-c2cncc3c2CN(C)Cc2cc(N4CCNCC4)ccc2-3)cc(OC)c1OC` gave a remaining activity of 104% (CDKL2 (Homo sapiens, UniProt Q92772); enzyme activity, inhibitor; 1 µM).
For `C1=C/COCc2cc(ccc2OCCN2CCCC2)Nc2nccc(n2)-c2cccc(c2)COC/1`, the remaining binding was 100% (FER (Homo sapiens, UniProt P16591); binding; 0.1 µM).
With `C[C@]1(O)CCCN(c2nc(Nc3ccc(S(=O)(=O)N[C@H]4CC[C@H](CN5CCN(c6ccc(C7CCC(=O)NC7=O)cc6F)CC5)CC4)cc3F)ncc2C(F)(F)F)C1` (stereo partly shown) the remaining binding was 33% (CDK2 (Homo sapiens, UniProt P24941); binding, competition with immobilised ligand; 1 µM).
The remaining binding of `CCCCC(=O)Nc1ccc(-c2ccc3ncn(CCC)c(=O)c3c2)cn1` is reported as 100% (CDK13 (Homo sapiens, UniProt Q14004); binding, competition with immobilised ligand; 0.5 µM).
The remaining binding of `COc1ccc2oc(-c3ccc4nc(N)oc4c3)c/c(=N\c3ccccc3NC(=O)CCN)c2c1` is reported as 92% (BMX (Homo sapiens, UniProt P51813); binding; 1 µM).
`Cc1cc([C@@H](C)Nc2ccccc2C(=O)O)c2nc(N3CCC(F)(F)CC3)c(C#N)c(=O)n2c1` has a remaining binding of 100% (MAP3K9 (Homo sapiens, UniProt P80192); binding, competition with immobilised ligand; 1 µM).
The MRT(0-inf) of `O=C1CC[C@H](N2Cc3cc(N4CCN(CC5CCN(c6ccc([C@@H]7c8ccc(O)cc8CC[C@@H]7c7ccccc7)cc6)CC5)CC4)ccc3C2=O)C(=O)N1` is reported as 8.96 h (female Sprague-Dawley rat, plasma; oral, 20 mg/kg, fasted).
For `C=CC(=O)N1CCC(COCC(=O)N2CCN(c3nc(-c4cnc(N)nc4C(F)F)nc(N4CCOC[C@@H]4C)n3)CC2)CC1`, the remaining binding was 94% (KDR (Homo sapiens, UniProt P35968); binding, competition with immobilised ligand; 1 µM).
`CNS(=O)(=O)c1ccc(Nc2ncc(C(F)(F)F)c(N3CCC[C@](C)(O)C3)n2)c(C)c1` has a remaining binding of 88% (STK16 (Homo sapiens, UniProt O75716); binding, competition with immobilised ligand; 1 µM).
For `O=c1nc(N2CCN(CC3CCCCC3)CC2)sc2c([N+](=O)[O-])cc(C(F)(F)F)cc12`, the concentration was 811 ng/mL (CD-1 mouse, lung; oral, 100 mg/kg, 30 min).
`N[C@H]1CCN(c2nccc(-c3cnn4ncccc34)n2)C1` gave a remaining binding of 100% (MAP3K13 (Homo sapiens, UniProt O43283); binding; 1 µM).
`FC(F)(F)Oc1cccc(-c2cnc3ccc(-c4ccncc4)nn23)c1` gave a remaining binding of 97% (Ribosomal protein S6 kinase alpha-5, N-terminal kinase domain (RPS6KA5, Homo sapiens, UniProt O75582); binding, competition with immobilised ligand; 5 µM).

Some of these lines once more:
`N[C@H]1CCN(c2nccc(-c3cnn4ncccc34)n2)C1` gave a remaining binding of 100% (MAP3K13 (Homo sapiens, UniProt O43283); binding; 1 µM).
